Measured values from different studies.
“And” joins repeats or separate records; there may be more than shown. Numbers after ± are the reported error.

| Structure (SMILES) | cell line | test | system | conditions | how to read | endpoint | value |
| --- | --- | --- | --- | --- | --- | --- | --- |
| COc1cnc2cccc(N3CCc4c(cc(Cn5ccnc5C)cc4-c4cn(C)nc4C(F)(F)F)C3=O)c2c1 | SU-DHL-6 | cell growth, inhibitor |  | 120 h |  | EC50 | 795 nM |
| O=C(O)CCCCCN1C(=O)/C(=C\c2ccc(-c3ccc(Cl)cc3)o2)SC1=S | LDR | silenced CMV-GFP reporter derepression, qHTS |  |  |  | efficacy | 113% |
| CCn1cc(-c2cc(Cn3ccoc3=N)cc3c2CCN([C@@H](C)c2cc(OC)ccn2)C3=O)c(C(F)(F)F)n1 | Pfeiffer | cell growth |  | 120 h |  | EC50 | 647 nM |
| C=C1C(=O)O[C@@H]2[C@H]3O[C@]3(C)CC/C=C(/C)CC[C@@H]12 | LDR | silenced CMV-GFP reporter derepression, qHTS |  |  |  | efficacy | 19% |
| COc1cccc2c1C(=O)c1c(O)c3c(c(O)c1C2=O)C[C@@](O)(C(=O)CO)C[C@@H]3O[C@H]1C[C@H](N)[C@H](O)[C@H](C)O1 | Vero | MTT |  | 100 µM, 24 h |  | growth inhibition | 10.3 ± 0.89% |
| Cc1cnc2ccc3c(c2n1)N1CCC(O)N=C1N3C (centres unmarked) | BALB/c 3T3 |  |  | 10 µM | baseline: solvent control | relative colony forming efficiency | 0% |
| C=Cc1c2[n-]c(c1C)/C=c1\[n-]/c(c(C)c1C=C)=C\c1[n-]c(c(CCC(=O)O)c1C)/C=c1\[n-]c(c(C)c1CCC(=O)O)=C2.[Sn+4] | SH-SY5Y | RNA-seq, measured: SERPINE1 mRNA |  | 5 µM, 5 h | baseline: untreated cells | fold change | 2.28 |
| COc1ccc(OC)c(Nc2nc3nonc3nc2N2CCCC(C)C2)c1 (centres unmarked) | LDR | silenced CMV-GFP reporter derepression, qHTS |  |  |  | efficacy | 28% |
| Cc1nn(CC(F)(F)F)cc1Nc1ncc(Br)c(NCc2ccc(S(N)(=O)=O)cc2)n1 | RAW-ISG | TBK1 phosphorylation, western blot |  | 10 µM, added: poly(I:C) | baseline: DMSO | phospho-TBK1/TBK1 ratio | 0.409 and 0.274 |
| O=C(C[C@@H](C(F)F)n1ccc(F)n1)N1CCC(O)(Cn2cnc3c(cnn3-c3ccc(F)cc3)c2=O)CC1 | CHP-212 parental | PI flow cytometry |  | 0.1 µM, 24 h |  | G2/M phase cells | 13.6% |
| Cc1cc(Nc2ncc(Cl)c(Nc3ccccc3S(=O)(=O)C(C)C)n2)c(OC(C)C)cc1C1CCNCC1 | CLB-GE | phosphoproteomics LC-MS/MS, measured: HVCN1 phosphorylation |  | 200 nM, 60 min | baseline: untreated | log2 fold change | -2.3 |
| NC1=NC(=O)/C(=C/c2ccccc2O)S1 | NG108-cl | clomeleon fluorescence, measured: intracellular chloride reduction |  | 5 h |  | EC50 | inactive |
| COc1cc2ncnc(Nc3ccc(Oc4ccccc4)c(C)c3C)c2cc1OC.Cl | MeWo (NF1) | cell viability, resazurin |  | 0.3 µM, 72 h, added: trametinib |  | average fractional effect | 8% |
| CN(Cc1cnc2nc(N)nc(N)c2n1)c1ccc(C(=O)N[C@@H](CCC(=O)O)C(=O)O)cc1 | cells transfected with H247C mutant |  |  | 0.5 µM, 2 min, pH 5.5, 37 °C |  | uptake | 12.4% |
| CC/C(=N\NC(=O)NCc1cccc(O)c1)c1ccc(O)c(C)c1O | SK-OV-3 | gene expression, microarray, measured: DNAJC22 |  | 10 µM, 24 h | baseline: DMSO | log ratio | -3.06 |
| O=P1(C2CCCCC2)CCCCC1 | SW480 | Annexin V-FITC/PI flow cytometry |  | IC50, 72 h |  | late apoptotic cells | 6.05% |
| CCCCN1C[C@H](O)[C@@H](O)[C@@H](O)[C@H]1CO | sample E patient fibroblasts | Gb3 level lowering, LC-MS/MS, measured: Gb3 d18:1/16:0 |  | 216 h |  | IC50 | 34200 nM |
| Cc1cccc(-c2[nH]c(CNc3ccccc3F)nc2-c2ccc3ncnn3c2)n1 | RPMI-8226 | flow cytometry, measured: CD9 |  | concentration not given | baseline: comparator compound alone | surface marker level | 151% |
| COc1ccc2c(N(C)c3ccc(/C(C)=N/OCCN)cc3)c3c(Cl)coc3nc2c1 | RWPE-1 | trypan blue exclusion |  | 1 µM, 72 h |  | growth inhibition | 55% |
| Cn1cc(Nc2nccc(-c3ccc4c(c3)CN(C3COC3)CC[C@H]4NC(=O)c3cn(C(C)(C)C)nn3)n2)cn1 | mouse splenic B cells | measured: ErbB2-ErbB3 signalling |  | 30 mg/kg, IgD-activated in vivo | baseline: vehicle, direction not given | pathway activation z-score | 1 |
| O=c1c2ccccc2nc(COc2ccccc2)n1/N=C/c1c[nH]c2ccccc12 | LDR | silenced CMV-GFP reporter derepression, qHTS |  |  |  | efficacy | 109% |
| CCn1cc(-c2cc(Cn3ccnc3)cc3c2CCN([C@H](c2cc(OC)ccn2)C2CC2)C3=O)c(C(F)(F)F)n1 | HEC-251 | cell growth, inhibitor |  | 120 h |  | EC50 | 968 nM |
| CCCCCCCCCCCCCCCC(NCc1ccccc1O)=C1C(=O)OC(CO)C1=O (centres unmarked) | G2-synchronized tsFT210 cells | flow cytometry |  | 50 µM, 4 h, 32 °C, release from G2 arrest |  | G1 phase cells | 30.5% |
| CCCN1CCN(c2ccc3[nH]c(-c4ccc5[nH]c(-c6ccc(C(F)(F)F)cc6)nc5c4)nc3c2)CC1 | TK-10 | SRB |  | 10 µM, 48 h |  | growth percent | -13% |

| Structure (SMILES) | cell line | test | system | conditions | how to read | endpoint | value |
| --- | --- | --- | --- | --- | --- | --- | --- |
| Cc1nc(N(Cc2ccccc2)c2ccc3c(c2)/C(=C/c2ccccc2)C(=O)N3Cc2ccccc2)c2ccccc2n1 (mixture of isomers) | LLC | PI flow cytometry |  | 2.0 µM |  | cells in G0/G1 phase | 53% |
| CCCCc1nc(Cl)c(CO)n1Cc1ccc(-c2ccccc2-c2nn[nH]n2)cc1 | human PBMC | RNA-seq, measured: CHST13 mRNA |  | 10 µg/mL, 24 h | baseline: untreated control | log2 fold change | -3.77 |
| CC(C)(N)c1cc(C(=O)N[C@@H]2CCc3ccc(Oc4ccnc5c4CCC(=O)N5)cc3C2)cc(C(F)(F)F)c1 | SK-MEL-239 C4 | ERK phosphorylation, inhibitor, Western blot, measured: p-ERK/total ERK |  | 1 h |  | IC75 | 389 nM |
| Cn1c(Nc2nc3ccc(C(F)(F)F)cc3s2)nc2cc(C(=O)NCCOCCO)ccc21 | SH-SY5Y | RNA-seq, measured: LIF mRNA |  | 5 µM, 5 h | baseline: untreated cells | fold change | 5.28 |
| CC#CC(=O)N1CC[C@@H](n2cc(-c3ccc(Oc4c(F)cccc4F)cc3)c3c(N)n[nH]c(=O)c32)C1 | REC-BTK^KO-OE | cell growth |  | 72 h |  | GI50 | 3820 nM |
| CC(C)C(=O)N1CCN(c2ccc(NC(=O)c3ccc([N+](=O)[O-])o3)cc2Cl)CC1 | LDR | silenced CMV-GFP reporter derepression, qHTS |  |  |  | efficacy | 45% |
| C=C1CC[C@@H]2[C@](C)(CCC[C@]2(C)C(=O)O)[C@H]1CC/C(C)=C/CO | neuroblastoma M2 (−) | western blot |  | IC50 | baseline: untreated | PARP cleavage | increased |
| CSc1cc(Oc2ccnc3[nH]c(=O)cnc23)ccc1NC(=O)Nc1cc(C(C)(C)C)nn1-c1ccccc1 | patient-derived cell line | RPPA, measured: phosphorylated Tuberin | human | 1 µM, 4 h | baseline: DMSO | phospho ratio | 1.16 |
| C[C@H]1[C@H](OC(=O)CCC(=O)O)O[C@@H]2O[C@@]3(C)CC[C@H]4[C@H](C)CC[C@@H]1[C@@]24OO3 | human primary cardiac fibroblasts | Sirius red |  | 5 µM, 48 h, added: TGF-β1 5 ng/mL |  | collagen secretion | decreased |
| CCCCCCCCCCCCCCC/C(NCc1ccccc1)=C1/C(=O)OC(CO)C1=O (centres unmarked) | G2-synchronized tsFT210 cells | flow cytometry |  | 50 µM, 4 h, 32 °C, release from G2 arrest |  | G1 phase cells | 31.4% |
| CC(=O)c1nn(-c2ccc(Cl)cc2)/c(=N/N=C(\C)c2ccc(NC(=O)c3ccc(C)cc3)cc2)s1 | MCF7 |  |  | 2.5 µM |  | toxicity | 92.1% |
| CC[C@H](C)[C@H](NC(=O)[C@H](CCCCN)NC(=O)[C@@H](NC(=O)[C@H](CCCNC(=N)N)NC(=O)[C@@H](NC(=O)[C@@H](CCCNC(=N)N)NC(=O)[C@@H](CCCNC(=N)N)NC(=O)[C@@H](CCCNC(=N)N)NC(=O)[C@@H](CCCNC(=N)N)NC(=O)[C@@H](CCCNC(=N)N)NC(=O)[C@H](N)CCCNC(=N)N)[C@@H](C)O)[C@@H](C)O)C(=O)N[C@@H](CC(=O)O)C(=O)N[C@@H](Cc1c[nH]c2ccccc12)C(=O)NC(C)(C)C(=O)N[C@@H](CCCCN)C(=O)N[C@H](C(=O)N[C@@H](CC(C)C)C(=O)NC(C)(C)C(=O)N[C@@H](CCCCN)C(=O)NCCCCCC(=O)NCCCC[C@H](NC(=O)CCCCCNC(=O)[C@H](CCCCN)NC(=O)C(C)(C)NC(=O)[C@H](CC(C)C)NC(=O)[C@@H](NC(=O)[C@H](CCCCN)NC(=O)C(C)(C)NC(=O)[C@H](Cc1c[nH]c2ccccc12)NC(=O)[C@H](CC(=O)O)NC(=O)[C@@H](NC(=O)[C@H](CCCCN)NC(=O)[C@@H](NC(=O)[C@H](CCCNC(=N)N)NC(=O)[C@@H](NC(=O)[C@@H](CCCNC(=N)N)NC(=O)[C@@H](CCCNC(=N)N)NC(=O)[C@@H](CCCNC(=N)N)NC(=O)[C@@H](CCCNC(=N)N)NC(=O)[C@@H](CCCNC(=N)N)NC(=O)[C@H](N)CCCNC(=N)N)[C@@H](C)O)[C@@H](C)O)[C@@H](C)CC)[C@@H](C)CC)C(N)=O)[C@@H](C)CC | SK-MEL-5 | microscopy |  | concentration not given |  | time to cell rounding | ~15 min |
| Cn1cc(-c2ccc(-c3cncc(Cl)c3N3CCC4(CCNC4=O)CC3)cc2)cn1 | COLO 205 | gene expression, microarray, measured: IER5 mRNA |  | concentration not given, 2 h | baseline: untreated cells | log2 fold change | 3.33 |
| Nc1cccc2c1C(=O)N(C1CCC(=O)NC1=O)C2=O (centres unmarked) | MM1.S | XTT |  | 0.4 µM | baseline: untreated | viability | 49% |
| O=P1(c2ccccc2)CCCCC1 | SW480 | MTT |  | 72 h | baseline: IC50 HaCaT over IC50 SW480 | selectivity index | 1 |
| CCNc1nc(Nc2ccc(F)c(Cl)c2)c2ccccc2n1 | Vero | MTT |  | 125 µg/mL |  | cytotoxicity | 47.1% |
| CC1(C)CCC(CN2CCN(c3ccc(C(=O)NS(=O)(=O)c4ccc(NCC5CCOCC5)c([N+](=O)[O-])c4)c(Oc4cnc5[nH]ccc5c4)c3)CC2)=C(c2ccc(Cl)cc2)C1 | THP-1 | annexin V/PI flow cytometry, measured: annexin V-/PI+ |  | 0.4 µM, 24 h |  | necrotic cells | 0.2% |
| O=C(/C=C/C=C/C=C/C1CCCCC1)NC1=C[C@@](O)(/C=C/C=C/C=C/C(=O)NC2=C(O)CCC2=O)[C@@H]2O[C@@H]2C1=O | hmc18 | cell growth, inhibitor, CellTiter-Glo luminescence |  | 78 h | baseline: day 0 cell count | GI50 | 24800 nM |
| CC(C)NCC(O)c1ccc(O)c(O)c1 (centres unmarked) | mouse ventricular cardiomyocytes |  |  | dose not given, 0.063 s |  | sarcomere length | 1.8 µm |
| CCCCS(=N)(=O)CCC(N)C(=O)O (centres unmarked) | OVCAR-5 | LC-ESI-MS/MS, measured: glutathione |  | 100 µM, 12 h | baseline: untreated | remaining GSH | 0.9% |
| NNc1nc(-c2ccc(Cl)cc2)c2c(NC(=O)c3ccccc3)nnc-2[nH]1 | TK-10 | SRB |  | 10 µM, NCI60 single-dose screen | baseline: untreated | cell growth | 139% |
| CC(=O)Nc1cccc(-n2c(=O)n(C3CC3)c(=O)c3c(Nc4ccc(I)cc4F)n(C)c(=O)c(C)c32)c1 | MeWo (NF1) | cell viability, resazurin |  | 100.00 nM, 72 h | baseline: DMSO | average fractional effect | 47% |
| c1ccc2[nH]ccc2c1 | HCT-8 | RNA-seq, measured: CCNG2 |  | concentration not given |  | mRNA level, LS mean | 63.7 counts per million |

Repeated from above:
| Structure (SMILES) | cell line | test | system | conditions | how to read | endpoint | value |
| --- | --- | --- | --- | --- | --- | --- | --- |
| CC(C)C(=O)N1CCN(c2ccc(NC(=O)c3ccc([N+](=O)[O-])o3)cc2Cl)CC1 | LDR | silenced CMV-GFP reporter derepression, qHTS |  |  |  | efficacy | 45% |
| Cn1cc(Nc2nccc(-c3ccc4c(c3)CN(C3COC3)CC[C@H]4NC(=O)c3cn(C(C)(C)C)nn3)n2)cn1 | mouse splenic B cells | measured: ErbB2-ErbB3 signalling |  | 30 mg/kg, IgD-activated in vivo | baseline: vehicle, direction not given | pathway activation z-score | 1 |
| O=C(O)CCCCCN1C(=O)/C(=C\c2ccc(-c3ccc(Cl)cc3)o2)SC1=S | LDR | silenced CMV-GFP reporter derepression, qHTS |  |  |  | efficacy | 113% |
| CCCCN1C[C@H](O)[C@@H](O)[C@@H](O)[C@H]1CO | sample E patient fibroblasts | Gb3 level lowering, LC-MS/MS, measured: Gb3 d18:1/16:0 |  | 216 h |  | IC50 | 34200 nM |
| C=C1C(=O)O[C@@H]2[C@H]3O[C@]3(C)CC/C=C(/C)CC[C@@H]12 | LDR | silenced CMV-GFP reporter derepression, qHTS |  |  |  | efficacy | 19% |
